Results pooled from the literature.
Compare with care: the assays were run in different laboratories. Several values in a cell are separate wells, animals, samples, runs or records.

Structure (SMILES) | target | assay | system | conditions | scale | endpoint | value
CC(C)[C@H]1NC(=O)C[C@H]2/C=C/CCSSC[C@@H](NC1=O)C(=O)N[C@H](Cc1cccc3ccccc13)C(=O)NCC(=O)O2 | PRKD2 (Homo sapiens, UniProt Q9BZL6) | enzyme activity, inhibitor | – | 10 µM | – | inhibition | -0.4%
Fc1cc2nc(NCCCNCc3cc(Cl)cc(Cl)c3)[nH]c2cc1F | MARS2 (Homo sapiens, UniProt Q96GW9) | enzyme activity | – | – | reference: human IC50 over T. brucei IC50 | selectivity ratio | > 704
C#CCCCCOc1ccc2c(c1)CCCN2C(=O)CCl | 3-ketoacyl-CoA thiolase, mitochondrial (Homo sapiens, UniProt P42765) | mass spectrometry profiling | Ramos cell lysate | 100 µM over 10 µM, UniProt P42765 | reference: high over low concentration | reactivity ratio | 0.565
Cn1nc(CCN)c(=O)c2c(=O)[nH]c(N)nc21 | folP (Bacteria, UniProt P0AC13) | CETSA HiBiT | Escherichia coli, whole cells | concentration not given | reference: whole cell over lysate ΔTm | target engagement efficiency | 8.5%
Cc1cc(-c2ccc3ccccc3c2)nnc1NCCN1CCN(C)CC1 | ADORA2A (Homo sapiens, UniProt P29274) | antagonist | – | 10000 nM | reference: control | activity | 4%
C=CC(=O)Nc1cc(-c2ccc(C(=O)N3CCCC(O)(CC)C3)cc2)ccc1F (stereo not shown) | DNA dC->dU-editing enzyme APOBEC-3B, C-terminal domain (Homo sapiens, UniProt Q9UH17) | covalent adduct, intact protein MS | – | 3 h, 1-fold, 25 µM | – | unmodified protein | 100% and 95%
CN(C)S(=O)(=O)N1CCN(C(=O)Cc2ccc(Cl)c(Cl)c2)[C@H]2[C@H]1COC[C@@H]2N1CCCC1 (single isomer, unassigned) | OPRK1 (Homo sapiens, UniProt P41145) | agonist | – | 0.3333 h | – | Emax | 96%
CCNC(=S)NN=Cc1c2ccccc2cc2ccccc12.Cc1ccc(C(C)C)cc1.[Cl-].[Cl-].[Ru+2] | Albumin (ALB, Homo sapiens, UniProt P02768) | binding, fluorescence titration | human serum albumin | 296 K | – | ΔG° | -6.6 kcal/mol
CN(C)[C@H]1C[C@@]23CC[C@@]4(O2)C(=CC[C@]2(C)[C@@H](c5ccc6ccncc6c5)CC[C@H]24)C=C3[C@@H](O)[C@@H]1O | WNK2 (Homo sapiens, UniProt Q9Y3S1) | ATP probe labelling, inhibitor, KiNativ profiling | – | 1 µM | – | inhibition | 1.5%
CS(C)(=O)=Nc1ccc(-c2ccc(-c3nc4cc(O[C@@H]5CO[C@H]6[C@@H]5OC[C@H]6O)[nH]c4cc3F)cc2)cc1 | DDR2 (Homo sapiens, UniProt Q16832) | enzyme activity, inhibitor | – | 10 µM | – | inhibition | -8%
O=C1NC(=O)c2c1c1cc(F)c[n+]3c1c1c2c2cc(O)ccc2[n]1[Ru-4]312([N]=C=S)[S+]3CC[S+]1CC[S+]2CC3 (stereo not shown) | PRKD1 (Homo sapiens, UniProt Q15139) | enzyme activity | – | 100 nM, human enzyme, together with: 10 µM ATP | reference: untreated | remaining activity | 76%
CC(=O)N[C@@H](CCC(N)=O)C(=O)N[C@@H](CC1CCCCC1)C(=O)N[C@@H](CNC(=O)CCl)C(=O)N[C@@H](CC(C)C)C(=O)N[C@@H](Cc1ccccc1)C(=O)O | Beta sliding clamp (Escherichia coli, UniProt P0A988) | binding, isothermal titration calorimetry | – | 37 °C | – | ΔH | -11.3 kcal/mol
CC(C)CC(O)(CC(C)C)c1cn(C(=O)N2CCCC2)nn1 | (Lyso)-N-acylphosphatidylethanolamine lipase (Abhd4, Mus musculus, UniProt Q8VD66) | probe labelling, inhibitor, measured: Abhd4 | mouse, brain | i.p., 0.8 mg/kg, 4 h, single peptide | reference: treated over vehicle mice, lower = stronger inhibition | activity ratio-of-ratios | 0.53 and 0.5 and 0.49 and 0.56 and 0.55 and 0.57

Some of these lines once more:
Structure (SMILES) | target | assay | system | conditions | scale | endpoint | value
CS(C)(=O)=Nc1ccc(-c2ccc(-c3nc4cc(O[C@@H]5CO[C@H]6[C@@H]5OC[C@H]6O)[nH]c4cc3F)cc2)cc1 | DDR2 (Homo sapiens, UniProt Q16832) | enzyme activity, inhibitor | – | 10 µM | – | inhibition | -8%
